Experimental data gathered from unrelated publications.
Compare with care: the assays were run in different laboratories. Numbers after ± are the reported error.

Structure (SMILES) | assay | test system | conditions | AUC(0-last)
CCCC[C@H](NC(C)=O)C(=O)N[C@H]1CC(=O)NCCCC[C@@H](C(=O)O)NC(=O)[C@H](Cc2c[nH]c3ccccc23)NC(=O)[C@H](CCCN=C(N)N)NC(=O)[C@@H](Cc2ccccc2)NC(=O)[C@H](Cc2cnc[nH]2)NC1=O | LC-MS/MS, non-compartmental | human, plasma | subcutaneous, 2.5 mg once daily | 277 ± 51.5 ng·h/mL
CC(C)(C)OC[C@@H]1C(=O)NCCN1C(=O)C[C@H](N)Cc1cc(F)c(F)cc1F |  | human, male, plasma | oral, single dose, fixed-dose combination with metformin, fed | 167 ± 28.5 ng·h/mL
CCOCCn1c(C2CCN(CCc3ccc(C(C)(C)C(=O)O)cc3)CC2)nc2ccccc21 |  | human, severe renal insufficiency, plasma | oral, 20 mg | 1470 ng·h/mL
CNC(=O)c1ccc(-c2cnc3ncc(Cc4ccc5ncccc5c4)n3n2)cc1F |  | human, severe hepatic impairment (Child-Pugh C), plasma | oral, 200 mg single dose | 8510 ng·h/mL
CC#CC(=O)NCCCC(=O)c1nc(-c2ccc(C(=O)Nc3ccccn3)cc2)c2c(N)nccn12 |  | human, severe hepatic impairment, plasma | oral, 50 mg acalabrutinib, single, geometric mean | 638 ng·h/mL
CS(=O)(=O)n1cc2c(n1)CN([C@H]1CO[C@H](c3cc(F)ccc3F)[C@@H](N)C1)C2 |  | healthy male human, plasma | oral, 400 mg, fasted single dose | 334 µM·h
CC(C)(/C=C(\C#N)C(=O)N1CCC[C@@H](n2nc(-c3ccc(Oc4ccccc4)cc3F)c3c(N)ncnc32)C1)N1CCN(C2COC2)CC1 |  | human | 400 mg single dose, median, alone | 316 ng·h/mL
O=c1[nH]c(=O)c(Cc2cccc(C(F)(F)F)c2)c([C@H]2CC[C@H](c3ccccc3)CC2)[nH]1 |  | human, male, plasma | oral, 150 mg 14C solution, geometric mean | 4320 ng·h/mL
Cc1c(C(=O)Nc2ccc(N3C[C@@H](C)O[C@@H](C)C3)nc2)cccc1-c1ccc(OC(F)(F)F)cc1 |  | human, plasma | oral, 400 mg once daily, cycle 1 day 15 | 9900 ng·h/mL

Repeated from above:
Structure (SMILES) | assay | test system | conditions | AUC(0-last)
CC#CC(=O)NCCCC(=O)c1nc(-c2ccc(C(=O)Nc3ccccn3)cc2)c2c(N)nccn12 |  | human, severe hepatic impairment, plasma | oral, 50 mg acalabrutinib, single, geometric mean | 638 ng·h/mL
